# Measured values pooled from the literature.
# ± gives the spread as reported.
# Sequence of UniProt P48736 (whole entry, looked up): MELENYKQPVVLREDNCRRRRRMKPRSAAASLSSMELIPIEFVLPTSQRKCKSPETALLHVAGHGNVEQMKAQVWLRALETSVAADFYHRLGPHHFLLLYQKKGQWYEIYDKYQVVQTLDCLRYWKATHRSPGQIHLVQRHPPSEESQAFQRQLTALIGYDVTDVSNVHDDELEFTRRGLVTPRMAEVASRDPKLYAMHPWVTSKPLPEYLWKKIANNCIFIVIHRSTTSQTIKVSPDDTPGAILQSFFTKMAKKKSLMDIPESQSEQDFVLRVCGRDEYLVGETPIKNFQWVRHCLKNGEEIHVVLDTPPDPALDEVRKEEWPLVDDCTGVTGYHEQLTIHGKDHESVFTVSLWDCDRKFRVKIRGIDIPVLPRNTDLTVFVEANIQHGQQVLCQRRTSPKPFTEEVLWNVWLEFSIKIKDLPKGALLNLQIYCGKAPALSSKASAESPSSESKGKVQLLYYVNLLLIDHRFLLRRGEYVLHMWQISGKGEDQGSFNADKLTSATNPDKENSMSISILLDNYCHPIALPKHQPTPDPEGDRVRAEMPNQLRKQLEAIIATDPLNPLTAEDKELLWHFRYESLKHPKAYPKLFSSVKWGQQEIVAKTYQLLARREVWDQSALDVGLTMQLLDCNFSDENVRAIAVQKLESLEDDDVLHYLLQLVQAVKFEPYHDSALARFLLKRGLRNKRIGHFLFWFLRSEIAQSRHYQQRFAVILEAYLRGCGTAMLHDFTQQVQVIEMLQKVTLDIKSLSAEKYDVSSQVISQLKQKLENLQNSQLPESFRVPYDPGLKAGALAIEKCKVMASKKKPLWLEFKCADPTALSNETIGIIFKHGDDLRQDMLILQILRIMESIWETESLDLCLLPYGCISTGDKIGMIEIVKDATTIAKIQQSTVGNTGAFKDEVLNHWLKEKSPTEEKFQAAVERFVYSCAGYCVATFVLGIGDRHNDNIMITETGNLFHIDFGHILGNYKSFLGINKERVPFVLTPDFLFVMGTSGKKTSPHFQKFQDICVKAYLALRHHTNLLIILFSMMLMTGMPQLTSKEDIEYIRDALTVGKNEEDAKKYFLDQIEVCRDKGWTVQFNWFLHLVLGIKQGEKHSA
# Sequence of UniProt O35659 (whole entry, looked up): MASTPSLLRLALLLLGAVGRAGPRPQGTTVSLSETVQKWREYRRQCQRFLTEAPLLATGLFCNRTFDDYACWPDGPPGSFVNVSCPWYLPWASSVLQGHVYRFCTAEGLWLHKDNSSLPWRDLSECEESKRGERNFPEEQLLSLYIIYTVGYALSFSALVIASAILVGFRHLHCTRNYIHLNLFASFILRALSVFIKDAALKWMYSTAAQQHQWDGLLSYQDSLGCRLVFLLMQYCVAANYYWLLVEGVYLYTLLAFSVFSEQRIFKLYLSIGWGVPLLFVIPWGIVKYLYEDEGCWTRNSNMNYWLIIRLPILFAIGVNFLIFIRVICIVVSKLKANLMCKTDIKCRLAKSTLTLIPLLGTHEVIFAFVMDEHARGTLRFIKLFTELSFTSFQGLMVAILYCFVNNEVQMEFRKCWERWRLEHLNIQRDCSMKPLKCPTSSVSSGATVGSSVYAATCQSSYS
SMILES,target or system,test,test system,setting,scale,endpoint,result
F[P-](F)(F)(F)(F)F.OC(Cn1cncn1)(Cn1cc(-[c-]2cccc2)nn1)c1ccc(F)cc1F.[Co+3].c1cc[cH-]c1 (racemic),Trypanosoma cruzi,,CL Brener,,baseline: Vero IC50 over parasite IC50,selectivity ratio,25
CCCC[C@@H]1NC(=O)[C@H](Cc2ccc(O)cc2)NC(=O)[C@@H]2CCCN2C(=O)[C@H](CC(=O)O)NC(=O)[C@H](C)NC(=O)[C@H](Cc2ccccc2)NC(=O)[C@@H]2CSCCC(=O)N3CN(CN(C3)C(=O)CCSC[C@@H](C(=O)N[C@@H](C)C(N)=O)NC1=O)C(=O)CCSC[C@H](NC(C)=O)C(=O)N[C@@H](CC(C)(C)C)C(=O)N1CCC[C@H]1C(=O)N[C@@H](CCC(=O)O)C(=O)N[C@H](CCCCNC(=O)CCc1cn(CCOCCOCCOCCN(CCOCCOCCOCCC(=O)N[C@H]3CSCCC(=O)N4CN5CN(C4)C(=O)CCSC[C@H](NC(=O)[C@@H](CC(=O)O)NC(=O)[C@H](Cc4cccc6ccccc46)NC(=O)[C@@H]4CCCN4C3=O)C(=O)N[C@@H](CCSC)C(=O)N[C@@H](CCCCNC(=N)N)C(=O)N[C@@H](CC(=O)O)C(=O)N[C@@H](Cc3c[nH]c4ccccc34)C(=O)N[C@@H](CO)C(=O)N[C@@H]([C@@H](C)O)C(=O)N3CCC[C@H]3C(=O)N3C[C@H](O)C[C@H]3C(=O)N[C@@H](Cc3c[nH]c4ccccc34)C(=O)N[C@H](C(N)=O)CSCCC5=O)CCOCCOCCOCCn3cc(CCC(=O)NCCCC[C@H]4NC(=O)[C@H](CCC(=O)O)NC(=O)[C@@H]5CCCN5C(=O)[C@H](CC(C)(C)C)NC(=O)[C@@H](NC(C)=O)CSCCC(=O)N5CN6CN(C5)C(=O)CCSC[C@H](NC(=O)[C@H](Cc5ccc(O)cc5)NC(=O)[C@@H]5CCCN5C4=O)C(=O)N[C@@H](Cc4ccccc4)C(=O)N[C@@H](C)C(=O)N[C@@H](CC(=O)O)C(=O)N4CCC[C@H]4C(=O)N[C@@H](Cc4ccc(O)cc4)C(=O)N[C@@H](CCCC)C(=O)N[C@H](C(=O)N[C@@H](C)C(N)=O)CSCCC6=O)nn3)nn1)C(=O)N1CCC[C@H]1C(=O)N[C@@H](Cc1ccc(O)cc1)C(=O)N2,"Poliovirus receptor (PVR, Homo sapiens, UniProt P15151)",SPR,,,,Kd,> 200 nM
COCCNc1nc(-c2nccn2C)nc2sc(-c3cccc(OC)c3Cl)c(-c3ccccc3)c12,"RAC1 (Homo sapiens, UniProt P63000)","GTP binding, inhibitor, cell-free GTP competition",,together with: fluorescent GTP 100 nmol/L,,IC50,2500 nM
CC(=O)NCCN(CC(=O)NCCN(CC(=O)NCCN(CC(=O)NCCC(N)=O)C(=O)C[C@@H](N)CCCNC(=N)N)C(=O)C[C@@H](N)Cc1ccccc1)C(=O)C[C@@H](N)Cc1ccccc1,HIV-1 TAR RNA,,,"concentration not given, 25 °C",,binding entropy term TΔS°,8.4 ± 0.5 kJ/mol
O=C(O)c1ccccc1OCc1ccccc1Br,"RAC1 (Homo sapiens, UniProt P63000, Q61L)","GTP binding, activator, flow cytometry bead",,"EDTA buffer, together with: 100 nM BODIPY-GTP",,EC50,81.3 nM
C=C1C[C@](OC)([C@H](O)C(=O)NC[C@@H]2C[C@@H](OC)C(C)(C)[C@@H](C[C@@H](COC)OC)O2)O[C@H](C)[C@@H]1C,RAW264.7,"cell viability, sulforhodamine B",,"48 h, 37 °C, together with: 100 µM H2O2",,IC50,1.7 ± 0.1 nM
CCCOC(=O)N1c2cc(CNC)ccc2[C@H](NC(=O)C(=O)Nc2ccc(Cl)c(F)c2)[C@H]1CNC(=N)N,"env (Human immunodeficiency virus 1, UniProt Q5G5U7)","pseudovirus infection, luciferase reporter",TZM-bl,48 h,,IC50,24 nM
CC(=O)NCCN(CC(=O)NCCN(CC(=O)NCCN(CC(=O)NCCC(N)=O)C(=O)[C@@H](N)Cc1ccccc1)C(=O)[C@@H](N)CCCNC(=N)N)C(=O)[C@@H](N)Cc1ccccc1,HIV-1 TAR RNA,,,"concentration not given, 25 °C",,binding entropy term TΔS°,-20.2 ± 1.7 kJ/mol
Cc1c(S(=O)(=O)N2CCc3n[nH]cc3C2)cc(C(=O)NCc2cccc3occc23)n1C,"Replicase polyprotein 1ab, nsp14 (rep, Severe acute respiratory syndrome coronavirus 2, UniProt P0DTD1)",inhibitor,,,,IC50,0.9 nM
CNCc1ccc2c(c1)N(C(=O)OCc1c(F)c(F)c(F)c(F)c1F)[C@H](CNC(=N)N)[C@H]2NC(=O)C(=O)Nc1ccc(Cl)c(F)c1,"env (Human immunodeficiency virus 1, UniProt Q27Q69)","pseudovirus infection, luciferase reporter",TZM-bl,48 h,,IC50,73 nM
CC[C@H](C)[C@H](NC(=O)[C@H](Cc1ccccc1)NC(=O)[C@@H]1CCn2cc(nn2)-c2cccc(c2)-c2cn(nn2)CC[C@H](NC(=O)[C@H](CCC(N)=O)NC(=O)[C@H](CCCCN)NC(=O)[C@H](CO)NC(=O)[C@H](CC(C)C)NC(=O)[C@H](CC(=O)O)NC(=O)[C@H](CO)NC(=O)[C@@H](NC(=O)[C@H](Cc2ccccc2)NC(=O)[C@@H](NC(=O)CNC(=O)[C@H](CCC(=O)O)NC(=O)CNC(=O)[C@@H](N)Cc2c[nH]cn2)[C@@H](C)O)[C@@H](C)O)C(=O)N[C@@H](CCC(=O)O)C(=O)N[C@@H](CCC(=O)O)C(=O)N[C@@H](CCC(=O)O)C(=O)N[C@@H](C)C(=O)N[C@@H](C(C)C)C(=O)N[C@@H](CCCNC(=N)N)C(=O)N1)C(=O)N[C@@H](CCC(=O)O)C(=O)N[C@@H](Cc1c[nH]c2ccccc12)C(=O)N[C@@H](CC(C)C)C(=O)N[C@@H](CCCCN)C(=O)N[C@@H](CC(N)=O)C(=O)NCC(=O)NCC(=O)N1CCC[C@H]1C(=O)N[C@@H](CO)C(=O)N[C@@H](CO)C(=O)NCC(=O)N[C@@H](C)C(=O)N1CCC[C@H]1C(=O)N1CCC[C@H]1C(=O)N1CCC[C@H]1C(=O)N[C@@H](CO)C(N)=O,"Glucagon-like peptide 1 receptor (Mus musculus, UniProt O35659)",cell-free assay,,,,Kd,0.8 nM
CNCc1ccc2c(c1)C[C@H](CNC(=N)N)[C@H]2NC(=O)C(=O)Nc1ccc(Cl)c(F)c1,"env (Human immunodeficiency virus 1, UniProt Q5G5U7)","pseudovirus infection, luciferase reporter",TZM-bl,48 h,,IC50,130 nM
C[C@H](Nc1ncnc(N)c1C#N)c1c(-c2ccccc2)[nH]c2c(Cl)cccc2c1=O,"PIK3CG (Homo sapiens, UniProt P48736)","kinase activity, inhibitor",,,,IC50,101 nM
Cc1cc(C)cc(S(=O)(=O)c2c(C(N)=O)[nH]c3ccc(Cl)cc23)c1,"Gag-Pol polyprotein, reverse transcriptase (gag-pol, Human immunodeficiency virus 1, UniProt P03366)","enzyme activity, inhibitor, ELISA",,,,IC50,18 nM
